Results of several laboratories.
A part holds a random share of what one study measured. Substitutions count along the parent as printed.

Set 1
Target: Probable WRKY transcription factor 50, DNA-binding domain (WRKY50, Arabidopsis thaliana, UniProt Q8VWQ5, residues 99-173)
Chain of UniProt Q8VWQ5 (99-173, looked up): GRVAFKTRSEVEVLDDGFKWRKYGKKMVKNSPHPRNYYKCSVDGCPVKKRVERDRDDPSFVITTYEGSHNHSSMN
Method: DNA-protein interaction ELISA
Molecule type: double-stranded DNA, one strand shown
Sample: in vitro, bacterial lysate
Tested at: not given
Notes: whole dsDNA probe, crude lysate protein
Reference: highest signal in screen
Reading: higher = stronger binding
Endpoint: relative absorbance
AAAAAATCCTATCTTGGCTTTGGCCTAAAA: 39.8 % of maximum
AAAAAAGTGTTAGATTGTAGTTGATAAAA: 19.5 % of maximum
AAAAAAGCTCGTCTCCGCCTCCTGCTAAAA: 32.6 % of maximum
AAAAAATCACAATACCTTCTCGTCATAAAA: 33.9 % of maximum
AAAAAATGTTTTTTAGAGGTGTGCAAAAAA: 17.1 % of maximum
AAAAAATACATTTGACTTTGGGTTTCAAAA: 81.9 % of maximum
AAAAAATCTTCACCTCACTTCGGTTTAAAA: 28.4 % of maximum
AAAAAATTTGCTCTTTTGGTTTTCACAAAA: 16.1 % of maximum

Set 2
Target: PABPC1L2, full length, GST fusion (mouse, UniProt A0ABA7IW68)
Method: RNAcompete
Molecule type: RNA
Sample: in vitro
Tested at: 20 nM
Notes: 7-mer, probes averaged, single round
Reference: mean of 7-mers
Reading: higher = stronger binding
Endpoint: 7-mer Z-score
Residues (chain): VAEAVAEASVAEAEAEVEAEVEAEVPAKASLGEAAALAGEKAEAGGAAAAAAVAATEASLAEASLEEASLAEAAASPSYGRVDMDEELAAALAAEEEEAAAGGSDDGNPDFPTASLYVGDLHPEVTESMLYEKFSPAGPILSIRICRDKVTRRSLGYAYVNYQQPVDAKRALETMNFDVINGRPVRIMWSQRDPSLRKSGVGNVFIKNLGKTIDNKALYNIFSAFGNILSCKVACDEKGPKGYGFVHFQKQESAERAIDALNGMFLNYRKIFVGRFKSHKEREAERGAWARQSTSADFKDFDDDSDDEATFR
CCUCCCU: -0.503
UCGCGUC: -0.354
GGACCGA: 0.236
UCAGACC: -0.0264
GCGCAAC: -0.0319
GAGCGCU: -0.233
CAGGUGA: 0.000733
CUUUAAA: 0.591

Set 3
Target: FOS, bZIP domain (human)
Method: DHFR protein complementation
Sample: yeast
Notes: single substitutions, most at no-binding floor
Reference: wild-type JUN-FOS pair
Reading: higher = stronger binding
Endpoint: binding fitness
Starting sequence: JUN, bZIP domain (human); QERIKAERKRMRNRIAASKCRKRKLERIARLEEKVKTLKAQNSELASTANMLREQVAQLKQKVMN; partner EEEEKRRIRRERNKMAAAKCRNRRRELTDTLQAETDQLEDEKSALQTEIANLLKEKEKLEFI
A40M: -0.119 natural log
A46R: 0.116 natural log
K39N: -0.612 natural log
R30S: 0.116 natural log
S47T: -0.0352 natural log
M51R: 0.00675 natural log
E44F: -0.33 natural log
S43I: -0.0549 natural log

Other studies, line by line
Starting sequence: viral docking peptide; KKVKRRLFETREL; partner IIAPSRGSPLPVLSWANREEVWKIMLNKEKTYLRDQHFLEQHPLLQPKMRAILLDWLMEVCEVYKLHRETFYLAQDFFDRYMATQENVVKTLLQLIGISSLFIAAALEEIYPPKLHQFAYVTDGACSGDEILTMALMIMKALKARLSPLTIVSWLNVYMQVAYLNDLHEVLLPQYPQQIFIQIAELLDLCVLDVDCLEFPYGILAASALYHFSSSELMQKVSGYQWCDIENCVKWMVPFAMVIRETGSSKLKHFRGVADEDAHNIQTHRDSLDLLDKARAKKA
KKVKRRLFATREL [E9A]  normalised enrichment score (CCNE1, cyclin fold, Cln2 fusion (human); yeast growth competition, sequencing; yeast; strong parent motif; reference: not given, higher = stronger binding): 3.7

For quick reference, copied from above (set 3):
R30S: 0.116 natural log
K39N: -0.612 natural log
A46R: 0.116 natural log
